Experimental data from different studies.
Each numbered part is a random draw from the data of one study; scales do not carry over between parts. Positions count from the first letter of the parent shown.

Study 1
Target: CCNE1, cyclin fold, Cln2 fusion (human)
Technique: yeast growth competition, sequencing
Sample: yeast
Setting: strong parent motif
Relative to: not given
Direction: higher = stronger binding
Endpoint: normalised enrichment score
Starting sequence: BRCA2 docking peptide (human); PSIKRNLLNEFDR; partner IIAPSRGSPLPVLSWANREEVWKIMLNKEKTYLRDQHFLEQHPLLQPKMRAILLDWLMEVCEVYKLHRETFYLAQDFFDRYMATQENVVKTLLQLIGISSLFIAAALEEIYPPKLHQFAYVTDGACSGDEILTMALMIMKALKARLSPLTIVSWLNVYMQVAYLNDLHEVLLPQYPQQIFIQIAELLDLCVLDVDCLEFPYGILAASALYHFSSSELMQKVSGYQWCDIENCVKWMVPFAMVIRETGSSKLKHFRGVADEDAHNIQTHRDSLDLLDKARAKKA
Substitution = S2K; value = 1.48
Substitution = N9W; value = 2.9
Substitution = R5M; value = 0.561
Substitution = L7P; value = -0.385
Substitution = L8A; value = 0.235

Study 2
Target: Interferon regulatory factor 7, full length, phosphomimetic (IRF7, Homo sapiens, UniProt Q92985, residues 1-503, S101K/S471D/S472D/S475D/S476D/S477D/S483D/S484D/S487D)
Technique: protein-binding microarray
Molecule type: double-stranded DNA, one strand shown
Sample: in vitro
Concentration: 250 nM
Setting: 60-bp whole probe
With: salmon DNA 0.4 mg/ml
Relative to: random background probes
Direction: higher = stronger binding
Endpoint: log fluorescence
Constant ends, left off below: GCCTAGCAC … GTCTTGATTCGCTTGACGCTGCTG
Target sequence (chain): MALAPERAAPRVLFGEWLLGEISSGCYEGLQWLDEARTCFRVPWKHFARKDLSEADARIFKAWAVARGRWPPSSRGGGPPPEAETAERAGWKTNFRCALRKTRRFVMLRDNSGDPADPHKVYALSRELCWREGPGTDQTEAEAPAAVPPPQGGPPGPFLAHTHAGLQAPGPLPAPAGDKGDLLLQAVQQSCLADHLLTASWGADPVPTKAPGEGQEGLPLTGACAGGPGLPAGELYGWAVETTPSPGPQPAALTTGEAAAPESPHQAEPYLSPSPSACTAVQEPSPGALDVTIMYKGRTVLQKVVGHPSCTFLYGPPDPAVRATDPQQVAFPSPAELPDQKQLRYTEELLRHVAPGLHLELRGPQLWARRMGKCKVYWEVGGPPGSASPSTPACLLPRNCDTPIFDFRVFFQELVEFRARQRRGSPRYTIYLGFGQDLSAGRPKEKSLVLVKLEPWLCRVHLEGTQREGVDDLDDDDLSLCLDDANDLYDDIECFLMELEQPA
Oligonucleotide = TTAGATCTAAGTCTCGATTAGTGCTAG; value = 1.72 z-score
Oligonucleotide = TTAGGTTTCCTACTGCTCTAGTGCTAG; value = 1.21 z-score
Oligonucleotide = CTTTTATTTTTTTTATTTATGTGCTAG; value = 3.07 z-score
Oligonucleotide = GACGAACTGTGTTTCGAGACGTGCTAG; value = 0.649 z-score
Oligonucleotide = TCATTTATGTCCTGTCTAACTGTGCTA; value = 0.99 z-score
Oligonucleotide = GACGGTTACGGACTGGGGACGTGCTAG; value = -0.306 z-score
Oligonucleotide = GACGATATCATACTGGAGACGTGCTAG; value = -0.308 z-score

Study 3
Target: Sal-like protein 4, full length isoform B (SALL4, Homo sapiens, UniProt Q9UJQ4-2, residues 1-616)
Technique: universal PBM
Molecule type: double-stranded DNA, one strand shown
Sample: in vitro
Concentration: not given
Setting: 8-mer, flanks averaged, mean of replicates
Direction: higher = stronger binding
Endpoint: E-score
Oligonucleotide = GGAGCTTA; value = -0.0688
Oligonucleotide = AAGAAGGT; value = 0.0133
Oligonucleotide = GATCGTAA; value = 0.125
Oligonucleotide = ATACTGTA; value = 0.236
Oligonucleotide = AACCCCGA; value = -0.159
Oligonucleotide = TACTAGAA; value = 0.225

Other studies, line by line
Molecule = PhoQ, residues 284 288 289 292 302 303 TLSLKA; target = PhoP, residues 12 14 15 18 19 LWHVM (Escherichia coli, UniProt P23836); test = Sort-seq, refers to: YFP reporter; test system = E. coli; setting = PhoQ-PhoP variant library, with: 10 µM Mg2+; scale = relative to: high Mg2+ state, higher = stronger signaling; endpoint = fold induction; value = 0.609

A few entries again (study 3):
Oligonucleotide = GGAGCTTA; value = -0.0688
Oligonucleotide = AAGAAGGT; value = 0.0133
